{"data": "Experimental data pooled from the literature", "note": "Parts stem from different laboratories: compare values within a part only."}
{"data": "Study 1", "target": "Fragile X messenger ribonucleoprotein 1, C-terminal low-complexity region (Fmr1, Mus musculus, UniProt P35922)", "technique": "RNA Bind-n-Seq", "molecule type": "RNA", "matrix": "in vitro", "tested at": "200 nM", "notes": "whole 134-nt RNA, ends assumed", "together with": "150 mM LiCl", "baseline": "input library", "direction": "higher = stronger binding", "all molecules": "7-deaza-guanosine replaces G"}
{"Sequence": "GGGAGUUCUACAGUCCGACGAUCCAAGUCCUGUGCUACACAUCGUAUGUACCGAAUCGGGUGGGAGGGUUUUUUUGGGAAAGUAUUAUGUUACGCCGUUCGGAUCUGCACUUCUGGAAUUCUCGGGUGUCAAGG", "log2 enrichment": -0.554}
{"Sequence": "GGGAGUUCUACAGUCCGACGAUCUCCUGUGCUACACAUCGUAUGUACCGAAUCGGGGAAAAAGGGGAAAAAGGAAAAAGGGGAAAGUAUUAUGUUACGCCGUUCGGAUCUGCAUGGAAUUCUCGGGUGUCAAGG", "log2 enrichment": -0.842}
{"Sequence": "GGGAGUUCUACAGUCCGACGAUCACCAUGCAGGUGGGCAUCUUUGGGAAGUGGGGCAAGGGGGGGAUAGGGAGGGGGGUAACACUUUGGGAACAGGUGGAAACAGGUCGUUUCUGGAAUUCUCGGGUGUCAAGG", "log2 enrichment": 1.1}
{"Sequence": "GGGAGUUCUACAGUCCGACGAUCUAACUUUAGAGGAGGAUCUGAUAGAUAUGGCAGUGGACGUGGAUUUGGGGAUGGCUAUAAUGGGUAUGGAGGAGGACCUGGAGGUGGCAAUGGAAUUCUCGGGUGUCAAGG", "log2 enrichment": 0.45}
{"data": "Study 2", "target": "Interferon regulatory factor 5, full length, phosphomimetic (IRF5, Homo sapiens, UniProt Q13568-2, residues 1-514, K96S/S451D/S453D/S456D/S462D)", "technique": "protein-binding microarray", "molecule type": "double-stranded DNA, one strand shown", "matrix": "in vitro", "tested at": "250 nM", "notes": "60-bp whole probe", "together with": "salmon DNA 0.4 mg/ml", "baseline": "random background probes", "direction": "higher = stronger binding", "all sequences stand within": "GCCTAGCAC … GTCTTGATTCGCTTGACGCTGCTG"}
{"Sequence": "GACGCTTTCGACACTGGGGACGTGCTA", "log fluorescence [z-score]": 5.82}
{"Sequence": "TCAGGTTTGAGTCTTCTACTGTGCTAG", "log fluorescence [z-score]": -0.258}
{"Sequence": "TTAGGTTTTCTTTCCCTTTAGTGCTAG", "log fluorescence [z-score]": 1.62}
{"Sequence": "TCTGTTTTCGCTTTCTTTAAGTGCTAG", "log fluorescence [z-score]": 7.4}
{"Sequence": "GACGGACTGGGGTATAGGGACGTGCTA", "log fluorescence [z-score]": -0.338}
{"Sequence": "TTAGTTTTCGGGTTTCGATTAGTGCTA", "log fluorescence [z-score]": 8.78}
{"Sequence": "CGCTTTCTTTAACTCATTTTGTGCTAG", "log fluorescence [z-score]": 2.01}
{"data": "Study 3", "target": "RNA binding protein fox-1 homolog 2, RRM domain, GST-SBP tag (RBFOX2, Homo sapiens, UniProt O43251-10, residues 100-194)", "technique": "RNA Bind-n-Seq", "molecule type": "RNA", "matrix": "in vitro", "tested at": "365 nM", "notes": "natural RNA segment, single round, ends assumed", "baseline": "no-protein control", "direction": "higher = stronger binding", "all sequences stand within": "GGGAGUUCUACAGUCCGACGAUC … UGGAAUUCUCGGGUGCCAA"}
{"Sequence": "CGUGGGACCCAUGACCAAAGCCCAGGAUGGCUUGGUGGGAGUGUCCCUGCUGCAUCUGCAUGAAGCCCCUGCUUUUUAGGCCUCACUCCCAUCAGAACCCUGCCUGCCCA", "RBNS enrichment (R)": 17.7}
{"Sequence": "CUAUAUUUUCUGGGACUGGAAGGAAUGAAUGCCCAUGUCCUGUCUACUUCUGUGUCUGUGCUAUGUGGGGGUGCAACUUCUGCCUGGUGGUUUGUGACAUGGCAGAUCAG", "RBNS enrichment (R)": 13.6}
{"Sequence": "UGAACAGCUGCUGUAGUGAUGAAACUCUUGCUUAAAAAGGAUGCCUCUUGUUUUUUGCUGCUGUAACUUACCAGAAAGUGUUCUAUAUUUAUUUCUGUUUGAAUUUGAAA", "RBNS enrichment (R)": 0.765}
{"Sequence": "UCUUUUGUACAAAUAUCUACAAAGCAGAUAAUAUCCCUAUCCAGUGCUUGCCCUUGGAAUUGUCUCUAAAUGCAUCAAGCAUACAAUAAAAAAAACUGAAAUUAACAUCC", "RBNS enrichment (R)": 0.735}
{"Sequence": "CUCUGGGAUGCUCUUCAUUAUCUCAAUGCCUGUGCCAUGAAGAUAGAAAACUGUAAGCUAACAUUUAAGAUGUUUCUUCUGGAAGGAAAGUGAGCAGGAACAAGUUAUAU", "RBNS enrichment (R)": 0.748}
{"Sequence": "AUCUAAAAAGGUAAACUGGCAUAUCCAGGGCAAAUGUGGGCUGCCAAUGGCUCAUCUCUAGGGUAAUUUUAUGUCUGAAAGUGUAUGCAGUUGGGUCAGAGCAUGACCUU", "RBNS enrichment (R)": 2.85}
{"Sequence": "UGGCUUGGACCUGAAAUCUGCCCCCAACAGUGUCCAAGUGCACAUGACUUUGAGCCAUCUCCAGAGAAGGAAGUGAAAAUUGUGGCUCCCCAGUCGAUUGGGACACAGUC", "RBNS enrichment (R)": 1.74}
{"Sequence": "CUUCCCAGAAUCUGUUUUGCCAUCUGCCAUUUGAGGGUGCUUGUUCUAAACAGCCUUUGAGGGUUUUACCCCCUGUGUCUCUUCCCUCCCCAUUGCCUAUUUGCACCCUA", "RBNS enrichment (R)": 0.854}
{"data": "Single results of other studies"}
{"Substance": "PhoQ, residues 284 288 289 292 302 303 TLSLKA", "target": "PhoP, residues 12 14 15 18 19 HEGLL (Escherichia coli, UniProt P23836)", "test": "Sort-seq, item: YFP reporter", "system": "E. coli", "setting": "PhoQ-PhoP variant library, together with: 10 µM Mg2+", "scale": "baseline: high Mg2+ state, higher = stronger signaling", "endpoint": "fold induction", "result": 1.18}
{"note": "Repeated from above (study 3):"}
{"Sequence": "AUCUAAAAAGGUAAACUGGCAUAUCCAGGGCAAAUGUGGGCUGCCAAUGGCUCAUCUCUAGGGUAAUUUUAUGUCUGAAAGUGUAUGCAGUUGGGUCAGAGCAUGACCUU", "RBNS enrichment (R)": 2.85}
{"Sequence": "UGGCUUGGACCUGAAAUCUGCCCCCAACAGUGUCCAAGUGCACAUGACUUUGAGCCAUCUCCAGAGAAGGAAGUGAAAAUUGUGGCUCCCCAGUCGAUUGGGACACAGUC", "RBNS enrichment (R)": 1.74}
{"Sequence": "CUUCCCAGAAUCUGUUUUGCCAUCUGCCAUUUGAGGGUGCUUGUUCUAAACAGCCUUUGAGGGUUUUACCCCCUGUGUCUCUUCCCUCCCCAUUGCCUAUUUGCACCCUA", "RBNS enrichment (R)": 0.854}
